Measurements from different studies.
Each numbered part is a random draw from the data of one study; scales do not carry over between parts.
Chain of UniProt Q99759 (whole entry, looked up): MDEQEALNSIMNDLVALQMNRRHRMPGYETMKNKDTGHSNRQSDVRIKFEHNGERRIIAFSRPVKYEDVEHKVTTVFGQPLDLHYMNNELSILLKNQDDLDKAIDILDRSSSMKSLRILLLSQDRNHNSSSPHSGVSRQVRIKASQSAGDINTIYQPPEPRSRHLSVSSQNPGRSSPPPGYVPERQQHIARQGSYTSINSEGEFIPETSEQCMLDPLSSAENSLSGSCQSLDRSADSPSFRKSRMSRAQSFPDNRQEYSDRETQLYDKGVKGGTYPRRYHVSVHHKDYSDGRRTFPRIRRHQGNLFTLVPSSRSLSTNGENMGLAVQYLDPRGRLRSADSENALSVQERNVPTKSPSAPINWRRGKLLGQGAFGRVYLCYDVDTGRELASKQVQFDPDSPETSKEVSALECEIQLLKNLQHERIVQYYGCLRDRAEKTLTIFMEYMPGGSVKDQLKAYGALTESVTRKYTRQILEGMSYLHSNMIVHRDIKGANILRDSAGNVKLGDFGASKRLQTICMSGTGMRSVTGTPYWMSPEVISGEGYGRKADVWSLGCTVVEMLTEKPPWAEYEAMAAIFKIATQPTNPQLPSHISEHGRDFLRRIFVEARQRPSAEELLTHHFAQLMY
Chain of UniProt P35590 (whole entry, looked up): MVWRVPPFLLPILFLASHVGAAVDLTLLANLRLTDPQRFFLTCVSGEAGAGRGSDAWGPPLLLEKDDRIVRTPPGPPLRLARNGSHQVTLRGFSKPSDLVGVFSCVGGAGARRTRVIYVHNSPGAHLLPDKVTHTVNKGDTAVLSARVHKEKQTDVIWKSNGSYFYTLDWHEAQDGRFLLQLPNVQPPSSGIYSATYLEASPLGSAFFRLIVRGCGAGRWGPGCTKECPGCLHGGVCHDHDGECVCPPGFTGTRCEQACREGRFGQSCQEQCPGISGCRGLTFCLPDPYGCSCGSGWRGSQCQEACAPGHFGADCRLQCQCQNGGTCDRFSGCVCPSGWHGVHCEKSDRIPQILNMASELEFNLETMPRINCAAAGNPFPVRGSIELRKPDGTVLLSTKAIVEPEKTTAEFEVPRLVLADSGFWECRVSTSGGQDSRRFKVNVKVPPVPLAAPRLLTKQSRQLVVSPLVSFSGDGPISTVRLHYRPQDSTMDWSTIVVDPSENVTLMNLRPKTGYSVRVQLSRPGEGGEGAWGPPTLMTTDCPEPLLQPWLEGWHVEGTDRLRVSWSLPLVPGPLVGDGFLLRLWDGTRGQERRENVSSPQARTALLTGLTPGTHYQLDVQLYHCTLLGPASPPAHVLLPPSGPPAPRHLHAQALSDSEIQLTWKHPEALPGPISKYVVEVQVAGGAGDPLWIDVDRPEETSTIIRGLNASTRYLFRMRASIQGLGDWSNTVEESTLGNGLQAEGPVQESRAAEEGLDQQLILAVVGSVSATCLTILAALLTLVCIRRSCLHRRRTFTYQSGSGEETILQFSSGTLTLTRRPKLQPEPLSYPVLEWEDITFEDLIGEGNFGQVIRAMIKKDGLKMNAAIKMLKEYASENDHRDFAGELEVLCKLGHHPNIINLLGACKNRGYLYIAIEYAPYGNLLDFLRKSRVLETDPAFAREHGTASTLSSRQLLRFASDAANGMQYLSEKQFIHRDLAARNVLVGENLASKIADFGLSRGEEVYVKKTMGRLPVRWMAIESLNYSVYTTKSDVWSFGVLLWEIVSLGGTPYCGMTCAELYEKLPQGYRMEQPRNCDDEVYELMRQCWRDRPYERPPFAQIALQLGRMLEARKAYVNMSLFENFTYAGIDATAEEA
Chain of UniProt Q14012 (whole entry, looked up): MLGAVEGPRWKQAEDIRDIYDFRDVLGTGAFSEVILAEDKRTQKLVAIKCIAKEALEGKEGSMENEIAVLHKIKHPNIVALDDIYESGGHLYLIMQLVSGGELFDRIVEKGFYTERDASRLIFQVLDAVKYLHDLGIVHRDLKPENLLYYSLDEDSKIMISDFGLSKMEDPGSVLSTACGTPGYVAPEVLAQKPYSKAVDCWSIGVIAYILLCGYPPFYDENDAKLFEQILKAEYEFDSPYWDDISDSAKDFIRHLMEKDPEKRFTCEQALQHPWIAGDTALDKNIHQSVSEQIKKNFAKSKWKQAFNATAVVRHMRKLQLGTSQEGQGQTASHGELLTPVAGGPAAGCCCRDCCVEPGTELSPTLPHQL

Set 1
Target: Cyclin-dependent kinase 12, with cyclin K (CDK12, Homo sapiens, UniProt Q9NYV4)
Chain of UniProt Q9NYV4 (whole entry, looked up): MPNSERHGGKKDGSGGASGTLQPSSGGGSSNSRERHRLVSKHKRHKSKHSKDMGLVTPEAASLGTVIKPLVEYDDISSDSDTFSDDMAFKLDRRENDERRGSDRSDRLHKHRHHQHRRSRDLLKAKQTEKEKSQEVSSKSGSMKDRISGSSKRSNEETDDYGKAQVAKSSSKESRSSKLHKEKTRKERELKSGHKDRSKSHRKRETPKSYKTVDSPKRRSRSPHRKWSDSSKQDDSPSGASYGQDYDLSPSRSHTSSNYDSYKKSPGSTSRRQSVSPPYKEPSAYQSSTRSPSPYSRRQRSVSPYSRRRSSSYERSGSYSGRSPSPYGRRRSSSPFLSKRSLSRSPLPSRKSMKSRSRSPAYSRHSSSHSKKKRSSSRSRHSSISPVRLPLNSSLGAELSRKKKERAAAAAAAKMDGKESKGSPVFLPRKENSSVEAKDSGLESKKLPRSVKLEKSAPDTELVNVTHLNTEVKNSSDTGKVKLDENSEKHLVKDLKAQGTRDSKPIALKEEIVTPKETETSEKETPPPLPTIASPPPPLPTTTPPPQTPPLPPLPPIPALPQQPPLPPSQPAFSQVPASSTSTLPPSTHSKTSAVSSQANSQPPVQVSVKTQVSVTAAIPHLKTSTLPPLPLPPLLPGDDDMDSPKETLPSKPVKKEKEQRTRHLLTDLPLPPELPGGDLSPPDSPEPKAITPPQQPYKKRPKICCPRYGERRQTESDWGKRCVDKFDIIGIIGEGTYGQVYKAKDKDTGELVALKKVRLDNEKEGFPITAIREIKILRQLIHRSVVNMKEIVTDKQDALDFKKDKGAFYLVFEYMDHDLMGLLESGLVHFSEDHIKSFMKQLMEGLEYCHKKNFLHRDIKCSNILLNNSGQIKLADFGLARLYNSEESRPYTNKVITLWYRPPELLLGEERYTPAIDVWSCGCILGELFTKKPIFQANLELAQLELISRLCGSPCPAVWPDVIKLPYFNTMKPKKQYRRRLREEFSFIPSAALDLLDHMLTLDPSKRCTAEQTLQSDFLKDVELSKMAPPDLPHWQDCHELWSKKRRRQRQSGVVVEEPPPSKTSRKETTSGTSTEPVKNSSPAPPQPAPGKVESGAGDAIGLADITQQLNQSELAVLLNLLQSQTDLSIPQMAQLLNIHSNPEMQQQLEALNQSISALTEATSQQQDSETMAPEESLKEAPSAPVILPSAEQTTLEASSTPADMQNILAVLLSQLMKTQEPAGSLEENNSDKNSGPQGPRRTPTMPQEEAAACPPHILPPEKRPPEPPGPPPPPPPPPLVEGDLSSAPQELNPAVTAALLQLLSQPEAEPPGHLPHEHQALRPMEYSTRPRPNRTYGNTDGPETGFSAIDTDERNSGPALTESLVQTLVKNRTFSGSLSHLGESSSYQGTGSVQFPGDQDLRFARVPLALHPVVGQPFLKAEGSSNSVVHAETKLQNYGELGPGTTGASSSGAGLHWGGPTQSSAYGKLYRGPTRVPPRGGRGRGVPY
Read-out: kinase activity
Mode: inhibitor
Technique: ADP-Glo
Tested at: 0.0082 µM
Measurement: inhibition
CC(=O)N1CCN(c2nc(NCc3nc4cc(Cl)c(Cl)cc4[nH]3)c3ncn(C)c3n2)CC1: -2.3%
CCn1cnc2c(NCc3nc4cc(Cl)c(Cl)cc4[nH]3)nc(N3CCN(C(=O)CNC(C)=O)CC3)nc21: 4.8%
CCn1cnc2c(NCc3nc4cc(Cl)c(Cl)cc4[nH]3)nc(N3CCN(C(C)=O)CC3)nc21: 13%
CC(=O)N1CCN(c2nc(NCc3nc4cc(Cl)c(Cl)cc4[nH]3)c3ncn(-c4cnn(C)c4)c3n2)CC1: -1.9%
CCn1cnc2c(NCc3nc4ccc(F)c(F)c4[nH]3)nc(N3CCn4ncnc4C3)nc21: 6.6%
CCn1cnc2c(NCc3nc4cc(Cl)c(Cl)cc4[nH]3)nc(N3CCN(C(=O)c4cccnc4)CC3)nc21: -10.5%
CCCCOc1nc(NCc2nc3cc(Cl)c(Cl)cc3[nH]2)c2ncn(CC)c2n1: 8.4%
CCn1cnc2c(NCc3nc4cc(Cl)c(Cl)cc4[nH]3)nc(N3CCN(C(=O)c4ccccc4)CC3)nc21: -4.5%
CC(=O)N1CCN(c2nc(NCc3nc4cc(Cl)c(Cl)cc4[nH]3)c3ncn(C(C)C)c3n2)CC1: -2.8%
CCn1cnc2c(NCc3nc4cc(Cl)c(Cl)cc4[nH]3)nc(N3CCN(C(=O)c4ccccn4)CC3)nc21: 3.3%

Set 2
Compound: C[C@@H]1CN(c2ccc(-c3cc(C(=O)NCCOCCOCCOCCOCCOCCOCCNC(=O)/C=C/c4[nH]cc(C(=O)N[C@@H](CC(N)=O)c5ccc(F)c(Cl)c5)c4-c4ccc(Cl)cc4F)ccc3F)cc2NC(=O)c2ccc(F)cc2C(F)(F)F)C[C@H](C)N1C
Read-out: thermal unfolding
Technique: differential scanning fluorimetry
Tested at: 5.5 µM
Reading: higher = more unfolded
Measurement: SYPRO Orange fluorescence
DCAF1: DDB1- and CUL4-associated factor 1 (DCAF1, Homo sapiens, UniProt Q9Y4B6)
Chain of UniProt Q9Y4B6 (whole entry, looked up): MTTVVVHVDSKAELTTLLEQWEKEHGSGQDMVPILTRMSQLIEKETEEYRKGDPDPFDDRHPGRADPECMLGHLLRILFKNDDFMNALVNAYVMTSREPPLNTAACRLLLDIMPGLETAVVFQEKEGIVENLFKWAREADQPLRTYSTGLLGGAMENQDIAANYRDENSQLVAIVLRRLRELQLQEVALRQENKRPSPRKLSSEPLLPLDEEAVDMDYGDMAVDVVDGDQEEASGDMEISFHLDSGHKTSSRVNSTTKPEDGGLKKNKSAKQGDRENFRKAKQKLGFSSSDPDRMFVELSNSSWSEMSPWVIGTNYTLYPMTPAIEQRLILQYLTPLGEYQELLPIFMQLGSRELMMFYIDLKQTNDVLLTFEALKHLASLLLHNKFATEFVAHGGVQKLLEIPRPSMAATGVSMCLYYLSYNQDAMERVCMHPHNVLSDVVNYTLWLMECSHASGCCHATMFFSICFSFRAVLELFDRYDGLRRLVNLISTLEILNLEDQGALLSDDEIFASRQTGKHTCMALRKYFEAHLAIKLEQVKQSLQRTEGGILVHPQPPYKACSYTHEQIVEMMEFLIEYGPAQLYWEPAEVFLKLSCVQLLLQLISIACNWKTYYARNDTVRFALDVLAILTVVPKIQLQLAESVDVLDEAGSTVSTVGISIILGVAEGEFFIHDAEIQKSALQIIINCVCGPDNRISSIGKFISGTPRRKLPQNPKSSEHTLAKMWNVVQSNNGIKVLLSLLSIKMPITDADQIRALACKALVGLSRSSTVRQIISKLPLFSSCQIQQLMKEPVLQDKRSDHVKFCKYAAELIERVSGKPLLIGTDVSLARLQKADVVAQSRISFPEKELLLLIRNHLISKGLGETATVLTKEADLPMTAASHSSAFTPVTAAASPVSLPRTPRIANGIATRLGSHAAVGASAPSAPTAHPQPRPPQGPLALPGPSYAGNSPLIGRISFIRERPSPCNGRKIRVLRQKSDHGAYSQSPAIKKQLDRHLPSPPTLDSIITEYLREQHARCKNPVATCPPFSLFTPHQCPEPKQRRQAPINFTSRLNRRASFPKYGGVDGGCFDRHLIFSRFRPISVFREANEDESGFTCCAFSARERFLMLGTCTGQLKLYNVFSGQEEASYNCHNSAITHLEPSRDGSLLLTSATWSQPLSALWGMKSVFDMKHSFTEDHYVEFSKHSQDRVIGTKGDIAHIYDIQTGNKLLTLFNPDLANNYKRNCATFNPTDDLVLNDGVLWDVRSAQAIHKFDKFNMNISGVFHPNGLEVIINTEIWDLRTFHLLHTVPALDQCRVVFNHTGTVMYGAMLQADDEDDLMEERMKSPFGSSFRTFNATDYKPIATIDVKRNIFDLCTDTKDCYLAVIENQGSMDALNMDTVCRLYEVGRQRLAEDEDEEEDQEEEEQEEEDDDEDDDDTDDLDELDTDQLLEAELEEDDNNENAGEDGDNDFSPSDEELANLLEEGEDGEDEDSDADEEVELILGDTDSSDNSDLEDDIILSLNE
WDR5: WD repeat-containing protein 5 (WDR5, Homo sapiens, UniProt P61964)
DCAF1; 64.21 °C: 54000 a.u.
WDR5; 30.4 °C: 13500 a.u.
DCAF1; 72.61 °C: 46000 a.u.
DCAF1; 41 °C: 12100 a.u.
WDR5; 44.2 °C: 14500 a.u.
WDR5; 87.41 °C: 58700 a.u.
DCAF1; 34 °C: 9530 a.u.
WDR5; 62.21 °C: 15200 a.u.
WDR5; 42.8 °C: 14500 a.u.
WDR5; 29.6 °C: 13600 a.u.
WDR5; 59.41 °C: 15600 a.u.

Set 3
SMILES: CCC1(c2cccc(-c3cn(C)nc3C)c2)C2=C(Nc3n[nH]cc31)C(F)C(C)(C)CC2=O (single isomer, unassigned)
Tested at: 1 µM
Measurement: remaining binding
MARK1 (Homo sapiens, UniProt Q9P0L2); kinase binding, KINOMEscan; reference: DMSO control: 100%
CSF1R (Homo sapiens, UniProt P07333); kinase binding, KINOMEscan; reference: DMSO control: 100%
TAOK1 (Homo sapiens, UniProt Q7L7X3); kinase binding, KINOMEscan; reference: DMSO control: 100%
CDK5 (Homo sapiens, UniProt Q00535); binding, competition with immobilised ligand: 96%
BUB1 (Homo sapiens, UniProt O43683); binding, competition with immobilised ligand: 100%
ABL2 (Homo sapiens, UniProt P42684); kinase binding, KINOMEscan; reference: DMSO control: 100%
EPHA2 (Homo sapiens, UniProt P29317); kinase binding, KINOMEscan; reference: DMSO control: 100%
TIE1 (Homo sapiens, UniProt P35590); binding, competition with immobilised ligand: 100%
MYLK (Homo sapiens, UniProt Q15746); binding, competition with immobilised ligand: 100%
MAP2K4 (Homo sapiens, UniProt P45985); kinase binding, KINOMEscan; reference: DMSO control: 100%
RET (Homo sapiens, UniProt P07949); binding, competition with immobilised ligand: 92%
Tyrosine-protein kinase ABL1, non-phosphorylated (ABL1, Homo sapiens, UniProt P00519, H396P); kinase binding, KINOMEscan; reference: DMSO control: 88%
Non-receptor tyrosine-protein kinase TYK2, JH2 (TYK2, Homo sapiens, UniProt P29597); binding, competition with immobilised ligand: 47%
MARK2 (Homo sapiens, UniProt Q7KZI7); kinase binding, KINOMEscan; reference: DMSO control: 98%
Tyrosine-protein kinase ABL1, phosphorylated (ABL1, Homo sapiens, UniProt P00519, H396P); kinase binding, KINOMEscan; reference: DMSO control: 80%
MAP3K3 (Homo sapiens, UniProt Q99759); kinase binding, KINOMEscan; reference: DMSO control: 96%
Tyrosine-protein kinase ABL1, phosphorylated (ABL1, Homo sapiens, UniProt P00519, F317I); kinase binding, KINOMEscan; reference: DMSO control: 88%
FGFR3 (Homo sapiens, UniProt P22607); binding, competition with immobilised ligand: 100%
CAMK1D (Homo sapiens, UniProt Q8IU85); kinase binding, KINOMEscan; reference: DMSO control: 100%
GRK2 (Homo sapiens, UniProt P25098); kinase binding, KINOMEscan; reference: DMSO control: 94%

Set 4
Structure (SMILES): COc1cc(-c2nc3ccc(C(=O)NCCCN(C)C)cc3n2C2CCC2)cc(OC)c1OC
Read-out: binding
Technique: competition with immobilised ligand
Tested at: 1 µM
Measurement: remaining binding
MAP3K3 (Homo sapiens, UniProt Q99759): 100%
TSSK1B (Homo sapiens, UniProt Q9BXA7): 79%
MAP2K3 (Homo sapiens, UniProt P46734): 77%
PLK2 (Homo sapiens, UniProt Q9NYY3): 86%
HIPK1 (Homo sapiens, UniProt Q86Z02): 87%
CDK15 (Homo sapiens, UniProt Q96Q40): 52%
PRKCD (Homo sapiens, UniProt Q05655): 69%
CDK11A (Homo sapiens, UniProt Q9UQ88): 100%
Ribosomal protein S6 kinase alpha-5, C-terminal kinase domain (RPS6KA5, Homo sapiens, UniProt O75582): 100%
MAP3K10 (Homo sapiens, UniProt Q02779): 62%
MAP4K1 (Homo sapiens, UniProt Q92918): 83%
COQ8B (Homo sapiens, UniProt Q96D53): 98%
CAMK1 (Homo sapiens, UniProt Q14012): 100%
TEK (Homo sapiens, UniProt Q02763): 89%
NEK7 (Homo sapiens, UniProt Q8TDX7): 78%
MAPK15 (Homo sapiens, UniProt Q8TD08): 100%
FLT3 (Homo sapiens, UniProt P36888): 87%
Tyrosine-protein kinase ABL1, non-phosphorylated (ABL1, Homo sapiens, UniProt P00519, H396P): 14%

Excerpt of the above (set 1):
CC(=O)N1CCN(c2nc(NCc3nc4cc(Cl)c(Cl)cc4[nH]3)c3ncn(C)c3n2)CC1: -2.3%
CCn1cnc2c(NCc3nc4cc(Cl)c(Cl)cc4[nH]3)nc(N3CCN(C(=O)CNC(C)=O)CC3)nc21: 4.8%
CCn1cnc2c(NCc3nc4cc(Cl)c(Cl)cc4[nH]3)nc(N3CCN(C(C)=O)CC3)nc21: 13%
CC(=O)N1CCN(c2nc(NCc3nc4cc(Cl)c(Cl)cc4[nH]3)c3ncn(-c4cnn(C)c4)c3n2)CC1: -1.9%
CCn1cnc2c(NCc3nc4ccc(F)c(F)c4[nH]3)nc(N3CCn4ncnc4C3)nc21: 6.6%
CCn1cnc2c(NCc3nc4cc(Cl)c(Cl)cc4[nH]3)nc(N3CCN(C(=O)c4cccnc4)CC3)nc21: -10.5%
CCCCOc1nc(NCc2nc3cc(Cl)c(Cl)cc3[nH]2)c2ncn(CC)c2n1: 8.4%
CCn1cnc2c(NCc3nc4cc(Cl)c(Cl)cc4[nH]3)nc(N3CCN(C(=O)c4ccccc4)CC3)nc21: -4.5%
CC(=O)N1CCN(c2nc(NCc3nc4cc(Cl)c(Cl)cc4[nH]3)c3ncn(C(C)C)c3n2)CC1: -2.8%
